Measurements collected from several papers.
Parts stem from different laboratories: compare values within a part only. Changes are numbered by the printed parent chain.

Sample 1 — method: DHFR PCA, deep sequencing; matrix: yeast; with: (+)-ABA 4.8 µM; relative to: wild-type fitted maximum; direction: higher = stronger binding
Target: ABI1, truncated, D143A, DHFR fusion (Arabidopsis thaliana)
Setting: methotrexate growth selection, single substitutions
Starting sequence: PYL1, truncated, DHFR fusion (Arabidopsis thaliana); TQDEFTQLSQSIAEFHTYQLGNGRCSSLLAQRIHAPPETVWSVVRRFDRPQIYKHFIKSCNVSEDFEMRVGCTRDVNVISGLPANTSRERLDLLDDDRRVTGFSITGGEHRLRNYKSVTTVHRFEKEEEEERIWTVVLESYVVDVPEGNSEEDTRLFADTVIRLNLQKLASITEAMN; partner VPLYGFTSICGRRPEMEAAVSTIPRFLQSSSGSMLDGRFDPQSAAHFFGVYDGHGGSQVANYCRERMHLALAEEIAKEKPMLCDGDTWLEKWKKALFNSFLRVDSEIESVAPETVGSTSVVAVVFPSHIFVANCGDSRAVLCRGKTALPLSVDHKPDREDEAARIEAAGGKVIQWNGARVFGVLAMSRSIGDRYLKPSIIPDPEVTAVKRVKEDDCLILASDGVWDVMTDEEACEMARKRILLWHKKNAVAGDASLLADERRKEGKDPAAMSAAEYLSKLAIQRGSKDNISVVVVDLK
Change	relative binding score
E129F	66.2%
T1I	78%
Q167F	29.2%
R99K	87.3%
R88G	-2.6%
E4N	54.6%
E38M	20.1%
D153L	-6.39%
D97V	72.4%
R74F	0.61%
P36R	57.2%
N85W	70.6%
R88K	76.7%
E128Q	73.9%
P37A	59.1%
Q2F	78.3%
K168A	55.4%
A175K	84.1%
L169Q	0.449%
T119C	49.5%
E4L	73.1%

Sample 2 — method: RNA Bind-n-Seq; molecule type: RNA; matrix: in vitro; concentration: 365 nM; relative to: no-protein control; direction: higher = stronger binding
Target: RNA binding protein fox-1 homolog 2, RRM domain, GST-SBP tag (RBFOX2, Homo sapiens, UniProt O43251-10, residues 100-194)
Setting: natural RNA segment, single round, ends assumed
All sequences stand within: GGGAGUUCUACAGUCCGACGAUC … UGGAAUUCUCGGGUGCCAA
Target sequence (chain): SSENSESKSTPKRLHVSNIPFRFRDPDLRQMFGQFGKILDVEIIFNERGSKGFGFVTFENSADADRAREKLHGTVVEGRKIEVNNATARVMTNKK
Oligonucleotide	RBNS enrichment (R)
GCCAUUCAGUAUUAAUAGAUCAUGAUUUCACUAAUCCAUCACAUUAUAGCACCAUGAGAGCUACAGUACUCUUGAAUUCUAGAGAUAGGUUUUGGUAAAUGUGAACUUGU	1.39
AGAUUUGCCUUAUUUUCAGGUUGUUUUAUUUAACGAUGGUUCCUUGGACAGCAUUCUGGUGUUCAGCAACCAAUAUGGAAUAUUUGUCAUUAAAUCCAUAUCAGUCUUUU	0.37
UGAAUAACCCUGCUUGAUUUUAGCAACAAGAGACAAUCCAUGCCAUGCUUUUAUCCUGAGAAACCUGGACCCUUAGGCUCUGACUAACAAAGACAGUUCAGCUCCAGACA	0.449
AUAAAUGGUAUUCUAAUAAAAUUGUGUACUAUCCUGUGUGCUUAGUUUUAAGAUCAACCAAUAGAUAUAUAUCCUACAAUUGAUAUAUUGCUUUAUUCACACUUUUAUUG	0.369
AAAGGAGCUACCUGCCCUUUCCUGGGCAUGCUUGGUGACUCAGAUUGAUCUUGGAGUGUGCAGUGGCCCUUCUACCCUGCACCUGACCUCAUGAUCCCCUCCACCUGCAC	0.321
UAAUGAAGUAUUCUGUUCCUAGUUGUGGGUGUGCUGGGUGGAGUGUGAAACACGACAUGAUCAAAGGAGACAGACAGUAUUUUGACUAAUAUGAAGUAGAGAUUACUUUA	1.12
UGAGUUGGGAGGGGAAUGUUCCCACUCAGAUCCUGACAGGGAAGAGGAGGAGAUGAGAGACUCUGGCAUGAUCUUUUUUUUGUCCCACUUGGUGGGGCCAGGGUCCUCUC	31.9
UGGAAGGAAAGCAGCAUGUUCCAGUUCUAAAAUGCAGUUACCAGACCCAUCACUUUAAAUCCUUAAAGUUAGAAGCUAGCAAAUUUUCUGUAGUGCAGAACGUUUAUUGC	18.7

Sample 3 — method: protein-binding microarray; molecule type: double-stranded DNA, one strand shown; matrix: in vitro; concentration: 2200 nM top; setting: 60-bp whole probe; with: salmon DNA 0.4 mg/ml; relative to: random background probes; direction: higher = stronger binding; all sequences stand within: GCCTAGCAC … GTCTTGATTCGCTTGACGCTGCTG
Target: Interferon regulatory factor 7, full length, phosphomimetic (IRF7, Homo sapiens, UniProt Q92985, residues 1-503, S471D/S472D/S475D/S476D/S477D/S483D/S484D/S487D)
UniProt Q92985, sequence (whole entry, unmodified, looked up): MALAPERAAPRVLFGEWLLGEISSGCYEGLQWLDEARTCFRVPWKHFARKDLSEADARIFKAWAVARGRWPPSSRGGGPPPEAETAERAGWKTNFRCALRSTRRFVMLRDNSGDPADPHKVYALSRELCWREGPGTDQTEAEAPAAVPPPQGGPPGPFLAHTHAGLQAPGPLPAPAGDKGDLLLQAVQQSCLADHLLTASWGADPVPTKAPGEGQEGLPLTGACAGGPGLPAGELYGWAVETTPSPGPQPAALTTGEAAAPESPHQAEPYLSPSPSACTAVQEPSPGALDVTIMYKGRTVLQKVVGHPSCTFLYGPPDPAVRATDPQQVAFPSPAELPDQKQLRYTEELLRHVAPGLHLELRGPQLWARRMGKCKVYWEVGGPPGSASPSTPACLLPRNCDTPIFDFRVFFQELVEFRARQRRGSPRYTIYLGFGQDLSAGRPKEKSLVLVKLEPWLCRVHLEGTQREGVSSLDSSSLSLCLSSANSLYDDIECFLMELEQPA
Oligonucleotide	fitted relative affinity [z-score]
CATCATTGCCTATTTTTCCCCGTGCTA	1.65
GACGATTTCGGCTATCGAGACGTGCTA	1.33
AAAATGATTGGTTGAACATGGTGCTAG	-0.258
GGGCCCATCATTCCGACCCTGTGCTAG	-0.801
TCACATTGAGATTTTCATACTGTGCTA	0.981
GACGGACTTCTACTGCTGACGTGCTAG	0.289
TACTCTCCAGGGTTTCTCTTTGTGCTA	2.16
TTAGGTTCCCTTTTCCATTAGTGCTAG	3.17
TTAGGTCTCGGTATCGGTTGGTGCTAG	1.04
TGGAGCCTAAGGTTTAGGCTCGTGCTA	-0.777
TCAAATCCCCTTCTACTACTGTGCTAG	1.23
TTGGGACTGGGTCTCGGTTAGTGCTAG	-0.534
GACGGACAGGGTATCGGGACGTGCTAG	-0.948
TCATGTTTGTCACTCTCAGAGTGCTAG	1.67
GACGGTTACGGTTCCGGGACGTGCTAG	0.885
TTAGGACAGCTTATCCTTTAGTGCTAG	-0.153
GACGCACTGCTTTTCCTGACGTGCTAG	0.989
GACGAACTGGGGACTGGAGGCGTGCTA	-0.414
TTATGACTGCTTCTCCTTTAGTGCTAG	1.43

Sample 4 — target: CCNE1, cyclin fold, Cln2 fusion (human); method: yeast growth competition, sequencing; matrix: yeast; setting: strong parent motif; relative to: not given; direction: higher = stronger binding
Starting sequence: RBL1 docking peptide (human); GSAKRRLFGEDPP; partner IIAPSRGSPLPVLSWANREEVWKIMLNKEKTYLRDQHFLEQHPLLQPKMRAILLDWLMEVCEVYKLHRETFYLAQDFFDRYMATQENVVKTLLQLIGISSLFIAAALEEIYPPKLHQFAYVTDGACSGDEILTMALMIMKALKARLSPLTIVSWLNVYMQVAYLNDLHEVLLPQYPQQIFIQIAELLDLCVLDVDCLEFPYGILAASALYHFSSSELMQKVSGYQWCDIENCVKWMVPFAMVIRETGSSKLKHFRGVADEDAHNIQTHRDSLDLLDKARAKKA
Change	normalised enrichment score
L7V	1.02
R5W	-0.296
G1P	6.8
L7Y	0.028
G9S	7.2
E10L	4.65
P13L	6.72
P13F	5.55
S2P	4.53
K4M	2.87
R5H	1.16
G1R	6.91
E10W	4.05
D11V	5.06
A3P	1.82
D11E	6.28
P13R	5.73
S2C	6.12
L7N	0.818
D11K	4.93
P12R	5.68
F8A	0.323
P13K	4.82
R5P	0.446
P12T	6.72

Mixed results
Molecule	target	test	system	conditions	scale	quantity	value
PhoQ, residues 284 288 289 292 302 303 TYGVAM	PhoP, residues 12 14 15 18 19 HEGLL (Escherichia coli, UniProt P23836)	Sort-seq, refers to: YFP reporter	E. coli	PhoQ-PhoP variant library, with: 10 µM Mg2+	relative to: high Mg2+ state, higher = stronger signaling	fold induction	3.07

Repeated from above (sample 4):
Change	normalised enrichment score
R5W	-0.296
S2P	4.53
P13K	4.82
P13L	6.72
L7N	0.818
F8A	0.323
L7Y	0.028
G1P	6.8
R5H	1.16
P13R	5.73
A3P	1.82
E10L	4.65
